Measured values of several laboratories.
Protocols differ between the studies behind these lines.
Technique: steady-state kinetics
B1: HCT R356E (Coleus scutellarioides, UniProt E8ZAP2); chain MKIHVRDSTLVRPSAATPAVSLWNSNVDLVVPNFHTPSVYFYRPSGADNFFDTAVMKAALGRALVSFYPMAGRLKRDEDGRVEIDCNAEGVLFVEAESDGTVDDYGDFAPSLELRRLIPAVDYSQGISAYPLLVLQVTFFKCGGVSLGVGMQHHAADGFSGLHFINTWSDMARGLDITLPPFIDRTLLSARDPPQPQFKHVEYQPPPAMKTYEPAETVVSIFKLTKDQLTTLKAKSKEDGNTTTYSSYEMLSGHVWRCTCLARGLPEEQETKLYIATDGRSRLQPQLPPGYFGNVIFTATPLAVAGDLGSKPVWYAASKIHDALARMDNDYLRSALDFLELQPDLKALVRGAHTFECPNLGITSWVRLPIHDADFGWGRPIFMGPGGIAYEGLSFVLPSPTNDGSLSVAISLQAEHMKLFEKLLYQI
B2: UGT1A9 (Homo sapiens, UniProt O60656); chain GKLLVVPMDGSHWFTMRSVVEKLILRGHEVVVVMPEVSWQLGRSLNCTVKTYSTSYTLEDLDREFKAFAHAQWKAQVRSIYSLLMGSYNDIFDLFFSNCRSLFKDKKLVEYLKESSFDAVFLDPFDNCGLIVAKYFSLPSVVFARGILCHYLEEGAQCPAPLSYVPRILLGFSDAMTFKERVRNHIMHLEEHLLCHRFFKNALEIASEILQTPVTEYDLYSHTSIWLLRTDFVLDYPKPVMPNMIFIGGINCHQGKPLPMEFEAYINASGEHGIVVFSLGSMVSEIPEKKAMAIADALGKIPQTVLWRYTGTRPSNLANNTILVKWLPQNDLLGHPMTRAFITHAGSHGVYESICNGVPMVMMPLFGDQMDNAKRMETKGAGVTLNVLEMTSEDLENALKAVINDKSYKENIMRLSSLHKDRPVEPLDLAVFWVEFVMRHKGAPHLRPAAHDLTWYQYHSLDVIGFLLAVVLTVAFITFKCCAYGYRKCLGKKGRVKKAHKSKTH
B3: FabZ (Campylobacter jejuni, UniProt A1VXZ7); chain MIDVMQIQEILPHRYPFLLVDKITELKVKEVVLGYKNISISDHVFMGHFPGHPIYPGVLILEGMAQTGGVLAFESMEDKVDPKSKVVYFTGIDGAKFRNPVRPGDRLDYEMSVVKNRGNMWIFKGQAFVDGNLVAEAELKAMIVDK
B4: FPPS (Aedes aegypti, UniProt Q17F78); chain MLSTLIRAGSLQTMGRQFARSVETPVQMQHARFISKSSEVNSDYMTMRENQTQKVSRDYNSKLQVRLKKVSRTLSTLNNSIPEAASQTIVTKSDAREFMAVFPDLVRDLTEYCKKYDNTLAPKWFVKALQYNVPQGKKNRGLAAVLAYRMLSKSEDLTPENIRRAHYLGWVIEMFQAVFLICDDAMDGSQTRRGQPCWYKLEDVKLSGINDALMIDAAIFYVLKKQFGDEPYYSKLVETFNEIKFITTIGQSLDLRSARMDVTKYTMDLYKSIVCHKTAYYTFYLPVALAMHMTGFTDPEVFRQTKTILLEIGLFYQTQDDFLDCFGDPAVTGKIGTDIEEGKCTWLSVVAMQRASDEQKELMKQCYGSSDPEKVARVKKLYEELGLPTTYAIYEEESYNMIKTHIQQISRGLPHELFFKIMEKIYRRDC
B5: enzyme S124T (Arabidopsis thaliana, UniProt O82390); chain MNARALLCSSNIHSLYTSNRPPEKTSSSRSLRNLKPSPKSLRVWIYPRNRSSVFRVLVRSSDKSESSNSYYVEGDKVSGNNDVVSDSPSSIVLPWWEEFPKRWVIVLLCFSAFLLCNMDRVNMTIAILPMSAEYGWNPATVGLIQSSFFWGYLLTQIAGGIWADTVGGKRVLGFGVIWWSIATILTPVAAKLGLPYLLVVRAFMGVGEGVAMPAMNNILSKWVPVQERSRSLALVYSGMYLGSVTGLAFSPFLIHQFGWPSVFYSFGSLGTVWLTLWLTKAESSPLEDPTLLPEERKLIADNCASKEPVKSIPWRLILSKPPVWALISCHFCHNWGTFILLTWMPTYYHQVLKFNLMESGLLSVFPWMTMAISANAGGWIADTLVSRGFSVTNVRKIMQTIGFLGPAFFLTQLKHIDSPTMAVLCMACSQGTDAFSQSGLYSNHQDIAPRYSGVLLGLSNTAGVLAGVLGTAATGHILQHGSWDDVFTISVGLYLVGTVIWNLFSTGEKIID
B6: CMBL (Homo sapiens, UniProt Q96DG6); chain MANEAYPCPCDIGHRLEYGGLGREVQVEHIKAYVTKSPVDAGKAVIVIQDIFGWQLPNTRYIADMISGNGYTTIVPDFFVGQEPWDPSGDWSIFPEWLKTRNAQKIDREISAILKYLKQQCHAQKIGIVGFCWGGTAVHHLMMKYSEFRAGVSVYGIVKDSEDIYNLKNPTLFIFAENDVVIPLKDVSLLTQKLKEHCKVEYQIKTFSGQTHGFVHRKREDCSPADKPYIDEARRNLIEWLNKYM
B7: POLH (Homo sapiens, UniProt Q9Y253); chain MATGQDRVVALVDMDCFFVQVEQRQNPHLRNKPCAVVQYKSWKGGGIIAVSYEARAFGVTRSMWADDAKKLCPDLLLAQVRESRGKANLTKYREASVEVMEIMSRFAVIERASIDEAYVDLTSAVQERLQKLQGQPISADLLPSTYIEGLPQGPTTAEETVQKEGMRKQGLFQWLDSLQIDNLTSPDLQLTVGAVIVEEMRAAIERETGFQCSAGISHNKVLAKLACGLNKPNRQTLVSHGSVPQLFSQMPIRKIRSLGGKLGASVIEILGIEYMGELTQFTESQLQSHFGEKNGSWLYAMCRGIEHDPVKPRQLPKTIGCSKNFPGKTALATREQVQWWLLQLAQELEERLTKDRNDNDRVATQLVVSIRVQGDKRLSSLRRCCALTRYDAHKMSHDAFTVIKNCNTSGIQTEWSPPLTMLFLCATKFSASAPSSSTDITSFLSSDPSSLPKVPVTSSEAKTQGSGPAVTATKKATTSLESFFQKAAERQKVKEASLSSLTAPTQAPMSNSPSKPSLPFQTSQSTGTEPFFKQKSLLLKQKQLNNSSVSSPQQNPWSNCKALPNSLPTEYPGCVPVCEGVSKLEESSKATPAEMDLAHNSQSMHASSASKSVLEVTQKATPNPSLLAAEDQVPCEKCGSLVPVWDMPEHMDYHFALELQKSFLQPHSSNPQVVSAVSHQGKRNPKSPLACTNKRPRPEGMQTLESFFKPLTH
B8: protein (UniProt A0A4Y6I1F8); chain MGSEVVSKKHEFGALEVEGIDFRASVAALGSTKKLVLGGAGFRGLEINGNLVKFTAIGIYVEEAIIPHLSPKLGGKTVEELCANELLFEEVLSAPFDKLIRVVFLLPLTGPQYSEKVVERIGLLPNPGLKEESIKQFLEIFKAENFPPRTSLVCSFTEDGLKIAFMKGPDFPEESDAVIEDKYFARAFLATIIAKDGVSPMAKLSFAERVSKYL
B9: FMO3 V277A (Homo sapiens, UniProt P31513); chain GKKVAIIGAGVSGLASIRSCLEEGLEPTCFEKSNDIGGLWKFSDHAEEGRASIYKSVFSNSSKEMMCFPDFPFPDDFPNFMHNSKIQEYIIAFAKEKNLLKYIQFKTFVSSVNKHPDFATTGQWDVTTERDGKKESAVFDAVMVCSGHHVYPNLPKESFPGLNHFKGKCFHSRDYKEPGVFNGKRVLVVGLGNSGCDIATELSRTAEQVMISSRSGSWVMSRVWDNGYPWDMLLVTRFGTFLKNNLPTAISDWLYVKQMNARFKHENYGLMPLNGALRKEPVFNDELPASILCGIVSVKPNVKEFTETSAIFEDGTIFEGIDCVIFATGYSFAYPFLDESIIKSRNNEIILFKGVFPPLLEKSTIAVIGFVQSLGAAIPTVDLQSRWAAQVIKGTCTLPSMEDMMNDINEKMEKKRKWFGKSETIQTDYIVYMDELSSFIGAKPNIPWLFLTDPKLAMEVYFGPCSPYQFRLVGPGQWPGARNAILTQWDRSLKPMQTRVVGRLQKPCFFFHWLKLFAIPILLIAVFLVLT
UniProt Q3SY77, sequence (whole entry, looked up): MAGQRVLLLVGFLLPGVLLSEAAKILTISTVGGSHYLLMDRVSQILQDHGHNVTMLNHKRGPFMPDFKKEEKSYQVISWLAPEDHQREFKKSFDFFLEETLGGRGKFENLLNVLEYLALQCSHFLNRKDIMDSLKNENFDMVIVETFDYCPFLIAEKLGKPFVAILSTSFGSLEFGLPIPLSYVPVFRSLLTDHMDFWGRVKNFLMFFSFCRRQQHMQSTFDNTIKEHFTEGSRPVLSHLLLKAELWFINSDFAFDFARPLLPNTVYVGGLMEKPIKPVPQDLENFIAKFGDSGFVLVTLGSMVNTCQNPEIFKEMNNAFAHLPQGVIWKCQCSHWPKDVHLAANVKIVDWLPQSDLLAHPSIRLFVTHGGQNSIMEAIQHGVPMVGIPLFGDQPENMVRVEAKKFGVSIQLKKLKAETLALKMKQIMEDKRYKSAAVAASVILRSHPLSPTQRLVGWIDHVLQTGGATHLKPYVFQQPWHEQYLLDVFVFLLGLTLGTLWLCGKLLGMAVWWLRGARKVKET
UniProt Q06520, sequence (whole entry, looked up): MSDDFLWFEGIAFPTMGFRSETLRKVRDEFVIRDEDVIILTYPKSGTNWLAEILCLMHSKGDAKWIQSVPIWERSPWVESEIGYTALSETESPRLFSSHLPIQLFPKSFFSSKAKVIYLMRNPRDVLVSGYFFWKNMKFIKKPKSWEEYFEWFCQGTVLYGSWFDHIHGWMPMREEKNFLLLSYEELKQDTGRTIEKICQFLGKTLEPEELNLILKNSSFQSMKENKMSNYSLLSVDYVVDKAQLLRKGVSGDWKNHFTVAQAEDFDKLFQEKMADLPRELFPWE
UniProt P03958, sequence (whole entry, looked up): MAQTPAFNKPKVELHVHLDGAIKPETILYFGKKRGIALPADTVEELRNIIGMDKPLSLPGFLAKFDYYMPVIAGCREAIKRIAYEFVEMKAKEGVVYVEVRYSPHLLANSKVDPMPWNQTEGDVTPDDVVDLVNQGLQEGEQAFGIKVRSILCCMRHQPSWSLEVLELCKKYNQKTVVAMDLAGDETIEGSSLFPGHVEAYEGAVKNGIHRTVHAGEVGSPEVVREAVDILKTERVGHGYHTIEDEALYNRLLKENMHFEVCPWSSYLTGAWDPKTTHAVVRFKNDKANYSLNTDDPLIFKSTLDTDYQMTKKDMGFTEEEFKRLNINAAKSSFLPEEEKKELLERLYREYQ
UniProt H6U1I8, sequence (whole entry, looked up): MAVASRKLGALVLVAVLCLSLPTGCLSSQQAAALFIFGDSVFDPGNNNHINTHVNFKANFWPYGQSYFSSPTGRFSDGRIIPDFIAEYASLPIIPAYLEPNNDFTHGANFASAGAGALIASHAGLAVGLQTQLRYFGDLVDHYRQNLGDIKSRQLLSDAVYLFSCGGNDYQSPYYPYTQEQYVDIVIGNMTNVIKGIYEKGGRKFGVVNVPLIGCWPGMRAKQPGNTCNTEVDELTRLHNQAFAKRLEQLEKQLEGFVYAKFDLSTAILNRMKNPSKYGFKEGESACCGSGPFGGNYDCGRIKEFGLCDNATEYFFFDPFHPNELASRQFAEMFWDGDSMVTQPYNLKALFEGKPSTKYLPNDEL

Substance = B1 (HCT R356E); substrate = NCCc1ccc(O)c(O)c1; pH = pH 8; setting = pseudo-first-order; added = p-coumaroyl CoA; Vmax = 1.29 µmol/min/mg
Substance = B2 (UGT1A9); substrate = O=c1c(O)c(-c2ccc(O)cc2O)oc2cc(O)cc(O)c12; pH = pH 7.4; temperature = 37 °C; Vmax = 4e-05 µmol/min/mg
Substance = bga (Niallia circulans, UniProt E5RWQ2); substrate = O=[N+]([O-])c1ccccc1O[C@@H]1O[C@H](CO)[C@H](O)[C@H](O)[C@H]1O; pH = pH 6; temperature = 40 °C; setting = low-substrate phase, biphasic; Vmax = 35.8 µmol/min/mg
Substance = enzyme (Candida albicans, UniProt A0A1D8PHX1); substrate = CCCCC/C=C\C/C=C\CCCCCCCC(=O)SCCNC(=O)CCNC(=O)[C@H](O)C(C)(C)COP(=O)(O)OP(=O)(O)OC[C@H]1O[C@@H](n2cnc3c(N)ncnc32)[C@H](O)[C@@H]1OP(=O)(O)O; pH = pH 7.4; temperature = 37 °C; setting = apparent, not purified; Vmax = 0.0074 µmol/min/mg
Substance = Ada (Mus musculus, UniProt P03958); substrate = Nc1ncnc2c1ncn2[C@@H]1O[C@H](CO)C[C@H]1O; matrix = mouse erythrocytes; pH = pH 5.8; temperature = 37 °C; Vmax = 0.0121 µmol/min/mg
Substance = B3 (FabZ); substrate = C/C=C/C(=O)SCCNC(=O)CCNC(=O)[C@H](O)C(C)(C)COP(=O)(O)OP(=O)(O)OC[C@H]1O[C@@H](n2cnc3c(N)ncnc32)[C@H](O)[C@@H]1OP(=O)(O)O; pH = pH 7.5; temperature = room temperature; setting = NaCl 500 mM, reverse hydration reaction; Vmax = 0.182 µmol/min/mg
Substance = UGT3A2 (Homo sapiens, UniProt Q3SY77); substrate = O=c1ccn([C@@H]2O[C@H](COP(=O)(O)OP(=O)(O)O[C@H]3OC[C@@H](O)[C@H](O)[C@H]3O)[C@@H](O)[C@H]2O)c(=O)[nH]1; pH = pH 7.4; temperature = 37 °C; setting = not purified; added = 1-OH-pyrene 16 µM, MgCl2 10 mM, alamethicin; Vmax = 0.000992 µmol/min/mg
Substance = B4 (FPPS); substrate = CC(C)=CCOP(=O)(O)OP(=O)(O)O; pH = pH 7.5; temperature = 37 °C; added = IPP 100 µM, Mg2+ 5 mM; Vmax = 666 µmol/min/mg
Substance = B5 (enzyme S124T); substrate = O=P(O)(O)O; pH = pH 6.5; temperature = 25 °C; setting = apparent, not purified; Vmax = 0.00505 µmol/min/mg
Substance = speG (Vibrio cholerae, UniProt Q9KL03); substrate = NCCCNCCCCNCCCN; pH = pH 9; temperature = 37 °C; Vmax = 111 µmol/min/mg
Substance = B6 (CMBL); substrate = CCCc1nc(C(C)(C)O)c(C(=O)OCc2oc(=O)oc2C)n1Cc1ccc(-c2ccccc2-c2nnn[nH]2)cc1; matrix = lysate; pH = pH 7.4; temperature = 37 °C; setting = not purified; Vmax = 0.0246 µmol/min/mg
Substance = B7 (POLH); substrate = Nc1nc2c(ncn2[C@H]2C[C@H](O)[C@@H](COP(=O)(O)OP(=O)(O)OP(=O)(O)O)O2)c(=O)[nH]1; temperature = 30 °C; Vmax = 2.33e-09 µmol/min
Substance = enzyme (Tanacetum cinerariifolium, UniProt H6U1I8); substrate = CC(C)=C[C@@H]1[C@@H](C(=O)SCCn2ccnc2)C1(C)C; pH = pH 7.5; temperature = 25 °C; Vmax = 0.2 µmol/min/mg
Substance = SULT2A1 (Homo sapiens, UniProt Q06520); substrate = C[C@H](CCCC(CO)CO)[C@H]1CC[C@H]2[C@@H]3[C@H](O)C[C@H]4C[C@H](O)CC[C@]4(C)[C@H]3C[C@H](O)[C@]12C; pH = pH 7; temperature = 37 °C; setting = substrate inhibition; added = PAPS 14 µM; Vmax = 0.0267 µmol/min/mg
Substance = B8 (protein); substrate = O=C(/C=C/c1ccc(O)cc1)c1c(O)cc(O)cc1O; Vmax = 214 µmol/min/mg
Substance = B9 (FMO3 V277A); substrate = CN1CCC[C@H]1c1cccnc1; matrix = HEK293 microsomes; temperature = 37 °C; setting = not purified; added = NADPH regenerating system; Vmax = 6.7e-06 µmol/min/mg

Some of these lines once more:
Substance = B3 (FabZ); substrate = C/C=C/C(=O)SCCNC(=O)CCNC(=O)[C@H](O)C(C)(C)COP(=O)(O)OP(=O)(O)OC[C@H]1O[C@@H](n2cnc3c(N)ncnc32)[C@H](O)[C@@H]1OP(=O)(O)O; pH = pH 7.5; temperature = room temperature; setting = NaCl 500 mM, reverse hydration reaction; Vmax = 0.182 µmol/min/mg
Substance = UGT3A2 (Homo sapiens, UniProt Q3SY77); substrate = O=c1ccn([C@@H]2O[C@H](COP(=O)(O)OP(=O)(O)O[C@H]3OC[C@@H](O)[C@H](O)[C@H]3O)[C@@H](O)[C@H]2O)c(=O)[nH]1; pH = pH 7.4; temperature = 37 °C; setting = not purified; added = 1-OH-pyrene 16 µM, MgCl2 10 mM, alamethicin; Vmax = 0.000992 µmol/min/mg
